Experimental data collected from several papers.
Numbered parts are unrelated; each lists some results of a single study.

Series 1
Target: Sal-like protein 4, full length isoform A (SALL4, Homo sapiens, UniProt Q9UJQ4, residues 1-1053)
Chain of UniProt Q9UJQ4 (whole entry, looked up): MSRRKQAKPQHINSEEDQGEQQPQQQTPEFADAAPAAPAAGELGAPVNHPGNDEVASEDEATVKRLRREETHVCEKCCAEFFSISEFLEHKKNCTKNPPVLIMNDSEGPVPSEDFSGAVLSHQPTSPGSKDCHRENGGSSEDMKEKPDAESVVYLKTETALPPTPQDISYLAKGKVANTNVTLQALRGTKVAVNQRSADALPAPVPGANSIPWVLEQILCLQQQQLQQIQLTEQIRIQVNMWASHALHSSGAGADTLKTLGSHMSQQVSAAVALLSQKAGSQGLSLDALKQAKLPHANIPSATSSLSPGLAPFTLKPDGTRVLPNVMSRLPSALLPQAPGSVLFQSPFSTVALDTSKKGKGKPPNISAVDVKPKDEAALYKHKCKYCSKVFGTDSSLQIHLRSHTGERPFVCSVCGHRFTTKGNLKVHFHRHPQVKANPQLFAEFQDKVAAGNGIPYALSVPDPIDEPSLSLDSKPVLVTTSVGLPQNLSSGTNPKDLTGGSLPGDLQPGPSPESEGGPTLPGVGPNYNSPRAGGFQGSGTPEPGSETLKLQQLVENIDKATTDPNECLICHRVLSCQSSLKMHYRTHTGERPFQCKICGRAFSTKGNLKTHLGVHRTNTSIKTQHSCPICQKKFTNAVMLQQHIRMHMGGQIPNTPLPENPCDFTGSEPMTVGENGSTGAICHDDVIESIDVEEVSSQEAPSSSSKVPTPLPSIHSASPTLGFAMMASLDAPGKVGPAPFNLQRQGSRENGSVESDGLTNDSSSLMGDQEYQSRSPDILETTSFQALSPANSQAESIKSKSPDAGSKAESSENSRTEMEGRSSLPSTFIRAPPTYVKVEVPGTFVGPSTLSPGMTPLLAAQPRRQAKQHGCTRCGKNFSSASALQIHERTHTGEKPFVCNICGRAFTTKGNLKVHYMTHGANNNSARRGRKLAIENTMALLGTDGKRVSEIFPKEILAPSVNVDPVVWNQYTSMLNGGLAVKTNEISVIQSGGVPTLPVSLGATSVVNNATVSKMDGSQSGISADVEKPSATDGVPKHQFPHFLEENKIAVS
Method: universal PBM
Molecule type: double-stranded DNA, one strand shown
Matrix: in vitro
Concentration: 600 nM
Notes: 8-mer, flanks averaged, mean of replicates
Direction: higher = stronger binding
`GGGGTTTA` has an E-score of -0.0756.
`AGTAGTTG` gave an E-score of 0.009.
With `AGCGCGTA` the E-score was 0.00386.
For `TCATGAGA`, the E-score was 0.0256.

Series 2
Target: POU domain, class 5, transcription factor 1, POU domain (Pou5f1, Mus musculus, UniProt P20263, residues 131-289)
Chain of UniProt P20263 (131-289, looked up): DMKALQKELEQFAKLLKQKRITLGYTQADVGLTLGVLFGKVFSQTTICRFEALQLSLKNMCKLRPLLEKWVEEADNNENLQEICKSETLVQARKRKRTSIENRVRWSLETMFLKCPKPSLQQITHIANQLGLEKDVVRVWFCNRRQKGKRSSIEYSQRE
Method: Spec-seq
Molecule type: double-stranded DNA, one strand shown
Matrix: in vitro
Concentration: not given
Notes: whole probe, mean of replicates
Baseline: not given
Direction: lower = stronger binding
`GAGTCGTCTCGTCAGCACATGCTCGTCCGTAGAGCACTCAGGTC`: “relative binding energy” 0.732 ln ratio.
For `GAGTCGTCTCGTCAGCACATGCTCTCCCGTAGAGCACTCAGGTC`, “relative binding energy” read 0.812 ln ratio.
Under “relative binding energy”, `GAGTCGTCTCGTCAGCACATGCTGGGCCGTAGAGCACTCAGGTC` is recorded as 0.661 ln ratio.
Under “relative binding energy”, `GAGTCGTCTCGTCAGCACATGGCAATCCGTAGAGCACTCAGGTC` is recorded as 0.58 ln ratio.

Series 3
Target: Histone acetyltransferase KAT6A, both winged helices, GST fusion (KAT6A, Homo sapiens, UniProt Q92794, residues 1-181)
Method: protein binding microarray
Molecule type: double-stranded DNA, one strand shown
Matrix: in vitro
Concentration: not given
Notes: 8-mer, flanks averaged, mean of 2 arrays, mostly near background
Baseline: not given
Direction: higher = stronger binding
Target sequence (chain): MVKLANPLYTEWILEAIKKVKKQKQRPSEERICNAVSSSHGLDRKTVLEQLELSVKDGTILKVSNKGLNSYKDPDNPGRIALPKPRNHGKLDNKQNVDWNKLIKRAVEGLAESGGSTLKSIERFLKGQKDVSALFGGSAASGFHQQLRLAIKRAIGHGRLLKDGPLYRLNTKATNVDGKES
For `ATCAGGGA`, the E-score was -0.25.
`CAGCGTGG` has an E-score of 0.128.
For `GAGGTTGA`, the E-score was -0.19.
`AAAAACAT` has an E-score of -0.0379.
The E-score of `CACTATAG` is reported as -0.146.
`ATGTCGAA` gave an E-score of -0.0518.

Single results of other studies
With `PhoQ, residues 284 288 289 292 302 303 WVSSAF` the fold induction was 1.93 (PhoP, residues 12 14 15 18 19 LHSVW (Escherichia coli, UniProt P23836); Sort-seq, item: YFP reporter; E. coli; PhoQ-PhoP variant library, together with: 10 µM Mg2+; baseline: high Mg2+ state, higher = stronger signaling).

A few entries again (series 1):
`AGTAGTTG` gave an E-score of 0.009.
